Measured values from different studies.
Parts stem from different laboratories: compare values within a part only.
Sequence of UniProt P54760 (whole entry, looked up): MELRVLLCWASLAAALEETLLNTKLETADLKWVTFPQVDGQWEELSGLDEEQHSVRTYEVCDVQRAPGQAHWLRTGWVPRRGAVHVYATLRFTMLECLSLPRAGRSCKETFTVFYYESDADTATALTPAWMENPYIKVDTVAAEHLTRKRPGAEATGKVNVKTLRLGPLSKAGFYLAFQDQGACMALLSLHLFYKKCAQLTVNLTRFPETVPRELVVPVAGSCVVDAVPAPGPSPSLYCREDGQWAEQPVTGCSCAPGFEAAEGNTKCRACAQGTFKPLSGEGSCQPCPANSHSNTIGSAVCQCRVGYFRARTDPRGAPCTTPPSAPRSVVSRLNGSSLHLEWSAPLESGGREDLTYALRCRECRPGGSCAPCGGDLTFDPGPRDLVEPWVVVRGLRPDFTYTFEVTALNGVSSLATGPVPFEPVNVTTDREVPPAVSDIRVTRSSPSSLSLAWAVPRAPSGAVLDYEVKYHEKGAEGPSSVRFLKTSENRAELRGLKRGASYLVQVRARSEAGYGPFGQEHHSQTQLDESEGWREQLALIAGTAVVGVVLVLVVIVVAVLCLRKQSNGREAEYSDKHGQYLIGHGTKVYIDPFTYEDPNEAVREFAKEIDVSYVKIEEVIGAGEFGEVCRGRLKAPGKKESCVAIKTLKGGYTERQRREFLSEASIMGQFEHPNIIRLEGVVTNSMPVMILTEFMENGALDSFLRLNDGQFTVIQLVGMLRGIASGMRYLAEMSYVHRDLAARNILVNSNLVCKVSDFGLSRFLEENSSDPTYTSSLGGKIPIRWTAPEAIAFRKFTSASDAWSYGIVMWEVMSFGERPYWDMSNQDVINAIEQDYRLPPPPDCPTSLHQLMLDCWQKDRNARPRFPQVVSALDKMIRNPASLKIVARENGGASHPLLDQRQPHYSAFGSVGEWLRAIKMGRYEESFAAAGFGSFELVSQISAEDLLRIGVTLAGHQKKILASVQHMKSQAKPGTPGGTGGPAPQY
Sequence of UniProt Q9H3Y6 (whole entry, looked up): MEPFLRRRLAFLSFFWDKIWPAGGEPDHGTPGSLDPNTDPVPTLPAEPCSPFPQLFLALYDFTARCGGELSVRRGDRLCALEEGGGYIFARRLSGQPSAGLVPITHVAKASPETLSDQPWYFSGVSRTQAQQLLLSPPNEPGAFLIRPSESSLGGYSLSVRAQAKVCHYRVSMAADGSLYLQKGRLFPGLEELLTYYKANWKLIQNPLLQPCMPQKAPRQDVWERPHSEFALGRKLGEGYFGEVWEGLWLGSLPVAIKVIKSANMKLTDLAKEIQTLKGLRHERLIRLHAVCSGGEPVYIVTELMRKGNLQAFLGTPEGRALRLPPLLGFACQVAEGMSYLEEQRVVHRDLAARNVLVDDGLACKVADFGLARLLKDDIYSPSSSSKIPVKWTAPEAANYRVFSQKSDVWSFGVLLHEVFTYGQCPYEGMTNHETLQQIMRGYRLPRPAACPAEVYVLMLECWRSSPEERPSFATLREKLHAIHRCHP
Sequence of UniProt P53671 (whole entry, looked up): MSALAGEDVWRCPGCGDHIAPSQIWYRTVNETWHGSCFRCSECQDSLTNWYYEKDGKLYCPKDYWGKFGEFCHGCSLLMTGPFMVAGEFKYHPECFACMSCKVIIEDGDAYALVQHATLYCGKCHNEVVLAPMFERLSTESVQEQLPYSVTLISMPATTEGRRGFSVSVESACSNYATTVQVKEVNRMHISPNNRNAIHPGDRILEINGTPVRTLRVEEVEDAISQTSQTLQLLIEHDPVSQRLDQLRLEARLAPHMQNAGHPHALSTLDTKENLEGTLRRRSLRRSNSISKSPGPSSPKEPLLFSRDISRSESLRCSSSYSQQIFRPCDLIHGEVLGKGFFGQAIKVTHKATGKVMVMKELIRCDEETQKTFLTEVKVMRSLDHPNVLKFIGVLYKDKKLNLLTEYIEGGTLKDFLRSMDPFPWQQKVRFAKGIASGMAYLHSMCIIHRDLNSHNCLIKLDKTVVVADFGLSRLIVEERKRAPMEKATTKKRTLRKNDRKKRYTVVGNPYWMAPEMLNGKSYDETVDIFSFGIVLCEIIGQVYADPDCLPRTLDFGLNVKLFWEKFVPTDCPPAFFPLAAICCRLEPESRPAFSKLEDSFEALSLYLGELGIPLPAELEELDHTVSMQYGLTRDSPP
Sequence of UniProt P29597 (whole entry, looked up): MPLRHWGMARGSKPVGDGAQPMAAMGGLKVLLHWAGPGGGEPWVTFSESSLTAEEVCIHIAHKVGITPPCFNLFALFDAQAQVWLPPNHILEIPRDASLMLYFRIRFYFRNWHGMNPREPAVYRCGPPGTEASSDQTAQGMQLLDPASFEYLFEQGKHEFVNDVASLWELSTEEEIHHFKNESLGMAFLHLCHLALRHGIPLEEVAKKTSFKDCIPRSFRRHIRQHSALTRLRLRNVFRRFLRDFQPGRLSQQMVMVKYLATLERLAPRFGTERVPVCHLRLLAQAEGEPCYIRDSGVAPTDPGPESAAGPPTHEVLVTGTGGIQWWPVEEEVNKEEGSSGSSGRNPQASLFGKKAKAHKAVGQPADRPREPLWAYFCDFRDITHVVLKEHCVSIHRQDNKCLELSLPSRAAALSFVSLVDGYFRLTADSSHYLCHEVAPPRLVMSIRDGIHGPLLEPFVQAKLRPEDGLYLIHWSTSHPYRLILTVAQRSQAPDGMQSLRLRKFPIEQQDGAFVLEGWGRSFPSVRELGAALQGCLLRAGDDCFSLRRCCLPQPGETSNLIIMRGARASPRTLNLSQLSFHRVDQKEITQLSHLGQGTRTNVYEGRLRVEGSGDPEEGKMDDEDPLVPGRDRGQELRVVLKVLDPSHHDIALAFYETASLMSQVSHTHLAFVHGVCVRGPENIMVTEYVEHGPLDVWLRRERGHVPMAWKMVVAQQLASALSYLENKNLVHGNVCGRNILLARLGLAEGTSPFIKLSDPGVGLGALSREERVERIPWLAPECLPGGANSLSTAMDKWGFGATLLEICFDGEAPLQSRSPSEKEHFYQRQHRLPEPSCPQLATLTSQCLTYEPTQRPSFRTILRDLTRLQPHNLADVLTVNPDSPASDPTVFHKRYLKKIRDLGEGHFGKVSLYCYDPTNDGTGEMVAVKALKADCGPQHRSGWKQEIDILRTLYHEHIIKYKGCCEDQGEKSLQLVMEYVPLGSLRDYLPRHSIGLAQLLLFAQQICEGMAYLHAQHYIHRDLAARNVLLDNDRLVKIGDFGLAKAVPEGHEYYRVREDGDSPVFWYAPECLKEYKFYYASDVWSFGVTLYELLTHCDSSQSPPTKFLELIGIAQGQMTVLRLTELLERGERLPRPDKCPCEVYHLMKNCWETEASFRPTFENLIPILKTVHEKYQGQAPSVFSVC
Sequence of UniProt Q13554 (whole entry, looked up): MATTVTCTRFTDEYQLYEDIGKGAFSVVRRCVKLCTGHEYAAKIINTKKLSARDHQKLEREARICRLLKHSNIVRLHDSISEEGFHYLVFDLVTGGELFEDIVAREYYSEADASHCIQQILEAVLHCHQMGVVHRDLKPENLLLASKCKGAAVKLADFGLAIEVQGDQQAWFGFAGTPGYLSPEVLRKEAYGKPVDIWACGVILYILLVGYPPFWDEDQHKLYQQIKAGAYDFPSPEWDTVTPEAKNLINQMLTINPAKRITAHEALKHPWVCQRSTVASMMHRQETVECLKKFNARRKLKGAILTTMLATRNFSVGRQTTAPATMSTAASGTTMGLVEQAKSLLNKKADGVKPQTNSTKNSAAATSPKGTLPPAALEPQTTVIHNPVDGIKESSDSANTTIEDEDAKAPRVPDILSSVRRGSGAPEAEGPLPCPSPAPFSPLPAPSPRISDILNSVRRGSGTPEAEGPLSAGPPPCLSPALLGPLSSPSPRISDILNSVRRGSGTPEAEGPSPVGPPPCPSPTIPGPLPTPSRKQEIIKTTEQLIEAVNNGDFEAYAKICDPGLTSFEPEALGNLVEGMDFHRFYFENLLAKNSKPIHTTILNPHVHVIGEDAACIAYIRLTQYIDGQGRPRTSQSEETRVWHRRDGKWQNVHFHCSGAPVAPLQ

Study 1
Structure (SMILES): NS(=O)(=O)c1cc(NC(=O)C2(c3ccccc3Cl)CC2)ccc1Oc1cccc(Cl)c1
Read-out: cell-free assay
Technique: competition with immobilised ligand
Concentration: 1 µM
target	remaining binding
Non-receptor tyrosine-protein kinase TYK2, JH1 (TYK2, Homo sapiens, UniProt P29597)	100%
EGFR (Homo sapiens, UniProt P00533, T790M)	100%
LIM domain kinase 2 (LIMK2, Homo sapiens, UniProt P53671)	82%

Study 2
Target: Interferon regulatory factor 7, full length, phosphomimetic (IRF7, Homo sapiens, UniProt Q92985, residues 1-503, S101K/S471D/S472D/S475D/S476D/S477D/S483D/S484D/S487D)
Technique: protein-binding microarray
Form: double-stranded DNA, one strand shown
Sample: in vitro
Concentration: 250 nM
Notes: 60-bp whole probe
With: salmon DNA 0.4 mg/ml
Relative to: random background probes
Direction: higher = stronger binding
All sequences stand within: GCCTAGCAC … GTCTTGATTCGCTTGACGCTGCTG
Target sequence (chain): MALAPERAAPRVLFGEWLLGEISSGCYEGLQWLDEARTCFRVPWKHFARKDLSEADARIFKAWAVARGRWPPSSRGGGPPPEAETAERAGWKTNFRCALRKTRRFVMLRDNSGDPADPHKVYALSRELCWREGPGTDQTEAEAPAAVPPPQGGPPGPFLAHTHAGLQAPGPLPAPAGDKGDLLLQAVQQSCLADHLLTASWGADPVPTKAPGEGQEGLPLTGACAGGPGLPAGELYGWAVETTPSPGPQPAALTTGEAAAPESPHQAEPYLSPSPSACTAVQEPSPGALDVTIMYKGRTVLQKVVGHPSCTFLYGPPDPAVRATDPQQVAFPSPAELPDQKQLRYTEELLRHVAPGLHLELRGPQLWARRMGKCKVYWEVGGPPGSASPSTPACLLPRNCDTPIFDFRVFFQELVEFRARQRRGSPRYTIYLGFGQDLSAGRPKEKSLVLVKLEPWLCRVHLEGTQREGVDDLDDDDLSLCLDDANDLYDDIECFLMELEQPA
Sequence	log fluorescence
TTAGGACTCCTACTGCTTTAGTGCTAG	0.0114 z-score
TTAGATTTCGGGTTTCGACTAGTGCTA	4.29 z-score
GACGAACTGATTCTCGAGACGTGCTAG	0.337 z-score
GACTATTCCAGTTTCGAGACGTGCTAG	5.45 z-score
TTAGGTATCCTGCTCCTTTAGTGCTAG	-0.27 z-score
TCTTTTTATGCTTTCTTTAAGTGCTAG	1.73 z-score
TTAGGTTTCGGTTACGGTTAGTGCTAG	9.77 z-score
TTAGATATCAGTAGCGATTAGTGCTAG	-0.181 z-score

Study 3
Target: Fragile X messenger ribonucleoprotein 1, C-terminal low-complexity region (Fmr1, Mus musculus, UniProt P35922)
Technique: RNA Bind-n-Seq
Form: RNA
Sample: in vitro
Concentration: 200 nM
Notes: whole 134-nt RNA, ends assumed
With: 150 mM KCl
Relative to: input library
Direction: higher = stronger binding
Sequence	log2 enrichment
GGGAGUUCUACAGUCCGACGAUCUUCACCAGUUUCACUGUGAGCCUCAACGAGCUGGAGACAGGCAUGGAGAAGACCCUGCCACCCACGGACUGCCGCCUGCGCCCUGACAUCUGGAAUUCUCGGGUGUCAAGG	-0.33
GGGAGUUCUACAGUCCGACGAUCACCAUGCAGGUGAGCAUCUUUGGGAAGUGGGGCAAGGGGGGGAUAGGGAGGGGGGUAACACUUUGGGAACAGGUGGUCCCAGGUCGUUUCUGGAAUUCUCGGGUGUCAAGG	0.79
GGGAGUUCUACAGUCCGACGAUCCCUGUGCUACACAUCGUAUGUACCGAAUCGGUUUUUUUGGGUUUUUUUGGUUUUUUUGGGAAAGUAUUAUGUUACGCCGUUCGGAUCUGCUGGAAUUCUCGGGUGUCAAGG	-0.544
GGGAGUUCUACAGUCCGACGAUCUGCUGUGCAGCGGCAUCGGCCCACUGUGGUGGAAUGUCUACGGGAAACUGAUGCCUCCCUCAGCCGGUGAGCAGUGAUAGAGGGGACAGGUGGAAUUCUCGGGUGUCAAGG	-2.18
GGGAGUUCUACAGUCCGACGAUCCUCAAGUCCUGUGCUACACAUCGUAUGUACCGAAUCGGAAAGGAGGUUUUUGGAAAGUAUUAUGUUACGCCGUUCGGAUCUGCACUUCCAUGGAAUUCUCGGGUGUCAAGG	-0.231
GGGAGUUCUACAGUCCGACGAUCCUCAAGUCCUGUGCUACACAUCGUAUGUACCGAAUCGGGAAAGGGUGGGUGGGAAAGUAUUAUGUUACGCCGUUCGGAUCUGCACUUCCAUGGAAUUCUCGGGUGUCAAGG	1.26
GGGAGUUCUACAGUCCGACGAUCUGGCCCUGGUGGCAUCCGGGGAGGAAGAGGUGGCCUCAUGGAUCGUGGUGGUCCCGGUGGAAUGUUCAGAGGUGGCCGUGGUGGAGACAGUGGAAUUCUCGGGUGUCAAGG	0.178
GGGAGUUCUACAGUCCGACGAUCCAAGUCCUGUGCUACACAUCGUAUGUACCGAAUCGGUUUUUGGAGGAAAAAAAGGAAAGUAUUAUGUUACGCCGUUCGGAUCUGCACUUCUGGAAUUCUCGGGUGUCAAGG	-0.526

Study 4
Compound: Nc1nc(Nc2ccc(S(N)(=O)=O)cc2)nn1C(=S)Nc1c(F)cccc1F
Read-out: enzyme activity
Action: inhibitor
Concentration: 0.5 µM
Relative to: control
target	remaining activity
CAMK2B (Homo sapiens, UniProt Q13554)	9.5%
SRMS (Homo sapiens, UniProt Q9H3Y6)	94%
EPHB4 (Homo sapiens, UniProt P54760)	51%

For quick reference, copied from above (study 2):
Sequence	log fluorescence
TTAGGTTTCGGTTACGGTTAGTGCTAG	9.77 z-score
TTAGGTATCCTGCTCCTTTAGTGCTAG	-0.27 z-score
